Published values of several laboratories.
Every numbered part comes from another study and shows a few of its results, in no order. Positions count from the first letter of the parent shown.

Set 1
Target: ABI1, truncated, D143A, DHFR fusion (Arabidopsis thaliana)
Method: DHFR PCA, deep sequencing
Medium: yeast
Notes: methotrexate growth selection, single substitutions
Added: (+)-ABA 4.8 µM
Baseline: wild-type fitted maximum
Direction: higher = stronger binding
Endpoint: relative binding score
Starting sequence: PYL1, truncated, DHFR fusion (Arabidopsis thaliana); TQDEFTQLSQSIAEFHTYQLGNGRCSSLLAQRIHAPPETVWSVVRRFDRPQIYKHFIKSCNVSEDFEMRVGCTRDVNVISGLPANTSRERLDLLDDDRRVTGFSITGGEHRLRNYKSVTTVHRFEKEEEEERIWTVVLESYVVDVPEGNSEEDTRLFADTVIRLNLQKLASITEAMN
L91Q: -6.41%
R45P: -15.5%
R111V: 2.38%
G108Y: 1.63%
E129P: 85.5%
K168E: 12.1%
S87L: 14.2%
R24C: 47.3%
S171H: 79%
N114S: 10.9%

Set 2
Target: Histone acetyltransferase KAT6A, winged helix 2, GST fusion (KAT6A, Homo sapiens, UniProt Q92794, residues 85-181)
Method: protein binding microarray
Form: double-stranded DNA, one strand shown
Medium: in vitro
Concentration: not given
Notes: 8-mer, flanks averaged, mean of 2 arrays, mostly near background
Baseline: not given
Direction: higher = stronger binding
Endpoint: E-score
Construct (chain): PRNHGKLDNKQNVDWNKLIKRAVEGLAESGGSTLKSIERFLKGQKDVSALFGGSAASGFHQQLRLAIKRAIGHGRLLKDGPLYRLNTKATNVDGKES
TGCAAGCA: 0.0133
CTTGCGGA: 0.0775
CCTGGTAC: 0.0654
AGAGGGAT: -0.112
CAGCGATG: -0.014
CCTACTAA: -0.0285
GGATCTTA: 0.0638
AGGAGTAA: -0.113
CCAGGTGA: -0.0871
AAGCTACC: 0.0483
ACCACATA: -0.0618
CCCGAACG: 0.0231
CTCGCTAC: -0.0247
CTCATCAC: -0.191
CATCACAG: -0.161
GACATGCC: -0.0416
AACTATGT: -0.154
AAGAGGCT: -0.148
CGCTGCCC: 0.175
CTTCCCTA: -0.175
GTGGCGAA: 0.23
AAAGTGCC: -0.0732
TGGTTTAA: 0.0622
AGATTTGA: -0.0947
ATTGGTGC: 0.0719

Set 3
Target: CCNF, cyclin fold, Cln2 fusion (human)
Method: yeast growth competition, sequencing
Medium: yeast
Notes: weak parent motif
Baseline: not given
Direction: higher = stronger binding
Endpoint: normalised enrichment score
Starting sequence: PKN2 docking peptide (human); VSAVQKLDFSDTM; partner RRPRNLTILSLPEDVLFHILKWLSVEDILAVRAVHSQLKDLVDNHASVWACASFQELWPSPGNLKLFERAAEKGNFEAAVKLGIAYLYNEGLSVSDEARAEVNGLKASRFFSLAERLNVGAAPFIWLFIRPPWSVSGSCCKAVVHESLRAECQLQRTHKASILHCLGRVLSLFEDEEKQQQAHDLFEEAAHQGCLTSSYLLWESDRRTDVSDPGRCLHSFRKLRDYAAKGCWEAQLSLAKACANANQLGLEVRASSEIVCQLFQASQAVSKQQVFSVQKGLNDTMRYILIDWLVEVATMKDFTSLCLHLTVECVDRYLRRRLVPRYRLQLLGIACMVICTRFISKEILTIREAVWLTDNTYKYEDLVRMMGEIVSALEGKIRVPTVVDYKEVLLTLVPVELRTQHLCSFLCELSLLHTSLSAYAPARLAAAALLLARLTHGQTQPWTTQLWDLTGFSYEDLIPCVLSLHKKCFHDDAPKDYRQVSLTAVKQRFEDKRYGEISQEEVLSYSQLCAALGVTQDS
VSAVQKLDFSVTM [D11V]: 1.12
VSAVQKLVFSDTM [D8V]: 2.28
VSAVQKIDFSDTM [L7I]: -0.522
VSAVQKLDFSETM [D11E]: 0.902
VSAVQNLDFSDTM [K6N]: 0.0114
VSAVQKLDFSDTW [M13W]: 1.06
VSKVQKLDFSDTM [A3K]: -0.152
VSGVQKLDFSDTM [A3G]: -0.587
VSAKQKLDFSDTM [V4K]: 0.843
VSAVQPLDFSDTM [K6P]: -0.964
ESAVQKLDFSDTM [V1E]: -0.765
KSAVQKLDFSDTM [V1K]: 1.55
VSAVAKADFSDTM [Q5A L7A]: -0.141
VSAVQKLDFSDSM [T12S]: 1.28
VSARQKLDFSDTM [V4R]: 1.76
VSAVQKLDFSHTM [D11H]: 1.43

Set 4
Target: CREB3L1, bZIP domain (human)
Method: DHFR protein complementation
Medium: yeast
Notes: single substitutions, most at no-binding floor
Baseline: wild-type JUN-FOS pair
Direction: higher = stronger binding
Endpoint: binding fitness
Starting sequence: JUN, bZIP domain (human); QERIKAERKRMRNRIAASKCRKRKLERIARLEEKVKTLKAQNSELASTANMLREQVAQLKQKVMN; partner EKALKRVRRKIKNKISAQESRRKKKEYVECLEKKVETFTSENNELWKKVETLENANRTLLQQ
L52A: -1.56 natural log
E44W: -1.48 natural log
T37D: -1.51 natural log
A40F: -1.53 natural log
K39L: -1.29 natural log
T37H: -1.37 natural log
K39R: -1.41 natural log
A57P: -1.47 natural log
L31Y: -1.48 natural log
V35D: -1.53 natural log
L52D: -1.39 natural log
R30T: -1.31 natural log
R53N: -1.49 natural log
V35R: -1.38 natural log
E54D: -1.39 natural log
E54K: -1.46 natural log
A29L: -1.52 natural log

Set 5
Target: RNA binding protein fox-1 homolog 2, RRM domain, GST-SBP tag (RBFOX2, Homo sapiens, UniProt O43251-10, residues 100-194)
Method: RNA Bind-n-Seq
Form: RNA
Medium: in vitro
Concentration: 365 nM
Notes: natural RNA segment, single round, ends assumed
Baseline: no-protein control
Direction: higher = stronger binding
Endpoint: RBNS enrichment (R)
Constant ends, left off below: GGGAGUUCUACAGUCCGACGAUC … UGGAAUUCUCGGGUGCCAA
Target sequence (chain): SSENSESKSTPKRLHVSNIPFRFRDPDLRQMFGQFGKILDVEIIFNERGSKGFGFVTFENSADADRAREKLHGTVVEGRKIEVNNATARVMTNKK
CCUUUAAGAUUCUUUCUAGACUUAAAUUUUGUGCCAUGGCCCACUGGAUGUAGAUAUUCUACAAGGAAGUAGAAACUUUUAAUACGAAGUAAUGAUUCCUCUAAAGGGAA: 0.338
UUGAGACAUUCAUUGUUGCUUGACUGACAUUUUGGUCUGGGUUUUCUUUUAAUAUUUUAUUUUAAUUAAAAUUAGGAAAAAAUGUGUUCAACAAUUUUUUUUUUGUCCCA: 0.643
GUAGAGUGCAUUCCGGUGUGGGUGCCAAUGAACUAGCUGCGAGCUGCUGUCAGAGUGGGAGCAGACUCAUCAGCCUUGGCAGAGAAAGAGUGCCCUUCAGGCUGUCAGGU: 0.464
GCAUAACCCACGUUUGUAUAAAUUAUUGAAAUCCAUUUUCACCUAAGAAUGGACUUAAGAAGUACUGCUGGGCAAGUGUGCUGAAAGUACAUUAACUGCUCAAAUACAAG: 1.13
AACUUAUGUUUCGCAGCAAAAGUGGAAACCUGUCUGUAAAGCAAGUGUAACGAUGAUUUCCUGUAUCAUGGGGGCUCAAACCAGGACCUCUCUAGUUGCUGUUAGGAAUG: 0.568
CCCCGCCACCCCCAAAAAAAGGUUUAUUUCUGAGCAGCCAGGCAUGAUAAGUAAAGGCCCCUAGUCCUGCACAGGAGGCUGAGGCAGGAGAAUUGUUUAGUCCUGGAAUA: 1.12
UAGUCUUUCUGUGUGACUUAUUAGGAGAUAGGAAGAGCAUUGGGAAACUUGCACAGCUAGCUAUGCAUCUACAUUUUGGUUUGGGGUUAGUUAUGAAAUGUUCUUAAUAU: 1.35
ACAUAACCAUCUGGAGUGUGUCCAGUUUAUUUUUCAUAGGACCAAUUUUUAUUUGCAGCUUAGGUUUUUAUAUGAAGUUGCAUUAUUGUGGACUUGGCUGUCUUGUGAUG: 2.07
UUUUAAAUUUAUGAUCCAUUUUGUAUGGUCUCAAGUUGGAUGACCUCAUUACUAAUAUUUGUUGUAAAAGUGAAACUUGUUUGCCGACCAAUAAACAACUGAUUGAGAUU: 0.38
CAGAAGCCAAGAGACCUUAUUAACUAGGCUAUAUUUUUCUUAACUUGAUCUGAAAUCCACAAUUAGACCACAAUGCACCUUUGGUUGUAUCCAUAAAGGAUGCUAGCCUG: 0.459
ACACUUGUUCACUAAGUGUAAGACCCUGGUAUCCUUUCCUAGAACUGUCAAAAAUAAAUGGAUGGAUAAAUGGAGUGUGUGGAAGUUCAUGUUUUUUCCCAUCAUCAAGG: 0.489
AAAAUGAUCCUGCAGCAGUUCUGGGCCCUAUGCCAUCCAUAAGGAUUCCUUGGGAUUCUGGUUUGGGGUGGUCAGUGCCCUCUGUGCUUUAUGGACACAAAACCAGAGCA: 0.446

Other studies, line by line
PhoQ, residues 284 288 289 292 302 303 SVTLVV  fold induction (PhoP, residues 12 14 15 18 19 NMSSL (Escherichia coli, UniProt P23836); Sort-seq, measured: YFP reporter; E. coli; PhoQ-PhoP variant library, added: 10 µM Mg2+; baseline: high Mg2+ state, higher = stronger signaling): 13.2

Repeated from above (set 2):
ACCACATA: -0.0618
CTCATCAC: -0.191
CTTCCCTA: -0.175
CCTACTAA: -0.0285
CATCACAG: -0.161
TGGTTTAA: 0.0622
CCAGGTGA: -0.0871
AGGAGTAA: -0.113
GACATGCC: -0.0416
AAAGTGCC: -0.0732
TGCAAGCA: 0.0133
CGCTGCCC: 0.175
